Assay results collected from several papers.
Every numbered part comes from another study and shows a few of its results, in no order.

Sample 1 — technique: universal PBM; form: double-stranded DNA, one strand shown; matrix: in vitro; tested at: not given; direction: higher = stronger binding; measurement: E-score
Target: Sal-like protein 4, full length isoform B (SALL4, Homo sapiens, UniProt Q9UJQ4-2, residues 1-616)
Setting: 8-mer, flanks averaged, mean of replicates
Sequence = GAATCCGC; result = -0.319
Sequence = CAGGCTGA; result = -0.229
Sequence = GGGGAAGA; result = -0.031
Sequence = AATGTTAC; result = 0.205

Sample 2 — technique: protein-binding microarray; form: double-stranded DNA, one strand shown; matrix: in vitro; tested at: not given; direction: higher = stronger binding; measurement: E-score
Target: Hepatocyte nuclear factor 3-beta, forkhead domain (FOXA2, Homo sapiens, UniProt Q9Y261, residues 142-269)
Setting: k-mer, scored over probes, only values ≥0.25
Target sequence (chain): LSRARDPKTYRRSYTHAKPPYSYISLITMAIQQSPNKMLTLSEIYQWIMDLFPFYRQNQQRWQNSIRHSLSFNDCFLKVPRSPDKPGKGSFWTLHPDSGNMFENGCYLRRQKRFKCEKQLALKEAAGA
Sequence = ACTGTATG; result = 0.291
Sequence = TATACTCA; result = 0.281
Sequence = AAACAGTA; result = 0.285
Sequence = GATACAAC; result = 0.277
Sequence = ATGTAAGA; result = 0.272
Sequence = AAATATTC; result = 0.285

Sample 3 — technique: protein-binding microarray; form: double-stranded DNA, one strand shown; matrix: in vitro; tested at: 250 nM; setting: 60-bp whole probe; with: salmon DNA 0.4 mg/ml; baseline: random background probes; direction: higher = stronger binding; measurement: log fluorescence; shared flanks, not repeated: GCCTAGCAC … GTCTTGATTCGCTTGACGCTGCTG
Target: Interferon regulatory factor 7, full length, phosphomimetic (IRF7, Homo sapiens, UniProt Q92985, residues 1-503, S101K/S471D/S472D/S475D/S476D/S477D/S483D/S484D/S487D)
Sequence of UniProt Q92985 (whole entry, unmodified, looked up): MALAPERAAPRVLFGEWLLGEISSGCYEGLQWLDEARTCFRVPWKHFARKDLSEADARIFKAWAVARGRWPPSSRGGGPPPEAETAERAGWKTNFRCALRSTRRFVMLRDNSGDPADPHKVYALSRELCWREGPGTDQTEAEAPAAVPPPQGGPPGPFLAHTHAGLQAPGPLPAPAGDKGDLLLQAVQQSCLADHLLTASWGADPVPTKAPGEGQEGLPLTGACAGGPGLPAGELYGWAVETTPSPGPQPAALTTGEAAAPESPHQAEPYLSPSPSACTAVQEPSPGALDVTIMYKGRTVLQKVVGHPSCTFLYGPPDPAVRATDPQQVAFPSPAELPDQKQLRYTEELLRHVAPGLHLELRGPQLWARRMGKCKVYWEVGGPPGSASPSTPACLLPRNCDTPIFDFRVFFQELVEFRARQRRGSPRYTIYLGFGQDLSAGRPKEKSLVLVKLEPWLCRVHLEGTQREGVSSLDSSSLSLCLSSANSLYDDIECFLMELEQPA
Sequence = GGCTCTCAGTGGGCTGCTGGGTGCTAG; result = -0.663 z-score
Sequence = TTAGAAGTGGGGTTTCGATTAGTGCTA; result = 5.98 z-score
Sequence = TTAGGTTTCCTTCACCTTTAGTGCTAG; result = 0.583 z-score
Sequence = TTAGGTCTTCTTATCCTTTAGTGCTAG; result = 0.331 z-score
Sequence = TTAGAACTGAGTCTCGATTCGTGCTAG; result = 4.19 z-score
Sequence = CTCCTTTTAATTTTTAACGAGTGCTAG; result = 0.988 z-score

Further values, each from its own experiment
Molecule = PhoQ, residues 284 288 289 292 302 303 TSTLRA; target = PhoP, residues 12 14 15 18 19 LHSVW (Escherichia coli, UniProt P23836); test = Sort-seq, refers to: YFP reporter; system = E. coli; setting = PhoQ-PhoP variant library, with: 10 µM Mg2+; how to read = baseline: high Mg2+ state, higher = stronger signaling; measurement = fold induction; result = 0.677

Repeated from above (sample 3):
Sequence = GGCTCTCAGTGGGCTGCTGGGTGCTAG; result = -0.663 z-score
